Assay results of several laboratories.
Protocols differ between the studies behind these lines. Numbers after ± are the reported error.
Cell line: PC-3

Compound | test | conditions | scale | endpoint | result
COc1cc(CNC(=O)CCCC/C=C/C(C)C)ccc1OCc1cn(-c2ccc(C(F)(F)F)cc2)nn1 | SRB | 10 µM, 48 h | – | growth percent | 70.5%
CC(=O)O[C@@]12CO[C@@H]1C[C@H](O)[C@@]1(C)C(=O)[C@H](O)C3=C(C)[C@@H](OC(=O)[C@H](O)[C@@H](NC(=O)OC(C)(C)C)c4ccccc4)C[C@@](O)([C@@H](OC(=O)c4ccccc4)[C@H]21)C3(C)C | RT-qPCR | IC50 concentration, 72 h plus 24 h recovery | relative to: untreated | GRPR mRNA level | 42.3 ± 4.55%
COC(=O)c1c(-c2ccc(OC)cc2)c2n(c1C(=O)OC)CCn1cccc1-2 | cell growth or viability, MTT | 48 h | – | IC50 | 74.4 µM
COc1cc(CNC(=O)CCCC/C=C/C(C)C)ccc1OCc1cn(-c2ccc(F)cc2)nn1 | SRB | 10 µM, 48 h | – | growth percent | 84.1%
COc1cc(C=C(C#N)C(=O)Nc2nnc(NC(=O)c3ccccc3)s2)ccc1O | cell growth or viability, MTT | 48 h | – | IC50 | 18.4 µM
O=c1[nH]nc(O)c2c(-c3cccc(O)c3)c3n(c12)CCn1cccc1-3 | cell growth or viability, MTT | 48 h | – | IC50 | 84.4 µM
C#C[C@@]1(O)[C@@H](CO)O[C@@H](n2cc(Br)c3c(N)ncnc32)[C@@H]1O | cell growth or viability, SRB | 48 h | – | GI50 | 0.107 µM
COc1cc(CNC(=O)CCCC/C=C/C(C)C)ccc1OCc1cn(-c2ccccc2OC)nn1 | SRB | 10 µM, 48 h | – | growth percent | 73.5%
C[C@]1([N+](=O)[O-])C(=O)c2ccccc2O[C@@H]1CC(=O)NC1CCCC1 | cell growth or viability, SRB | 96 h | – | IC50 | > 50 µM
CCc1ccc(-n2cc(COc3ccc(CNC(=O)CCCC/C=C/C(C)C)cc3OC)nn2)cc1 | SRB | 10 µM, 48 h | – | growth percent | 70.9%
COC(=O)c1c(-c2cccc(C)c2)c2n(c1C(=O)OC)CCn1cccc1-2 | cell growth or viability, MTT | 48 h | – | IC50 | 92.8 µM
COc1cc(CNC(=O)CCCC/C=C/C(C)C)ccc1OCc1cn(-c2cc(OC)c(OC)c(OC)c2)nn1 | SRB | 10 µM, 48 h | – | growth percent | 80.9%
CNC(=O)c1cc(O[C@H]2CC[C@H](NC(=O)Nc3ccc(Cl)c(C(F)(F)F)c3)CC2)ccn1 | cell growth or viability, MTT | 72 h | – | EC50 | 7 µM
C[C@]1([N+](=O)[O-])C(=O)c2ccccc2O[C@@H]1CC(=O)OCc1ccccc1 | cell growth or viability, SRB | 96 h | – | IC50 | 20.1 µM
Cc1cccc(-c2c3n(c4c(=O)[nH]nc(O)c24)CCn2cccc2-3)c1 | cell growth or viability, MTT | 48 h | – | IC50 | 72.4 µM
C[C@]1([N+](=O)[O-])C(=O)c2cc(C(F)(F)F)ccc2O[C@@H]1CC(=O)NC12CC3CC(CC(C3)C1)C2 | cell growth or viability, SRB | 96 h | – | IC50 | 1.69 µM
O=c1[nH]nc(O)c2c(-c3cccc([N+](=O)[O-])c3)c3n(c12)CCn1cccc1-3 | cell growth or viability, MTT | 48 h | – | IC50 | 17.7 µM
CC12CC3CC(C)(C1)CC(NC(=O)C[C@H]1Oc4ccccc4C(=O)[C@]1(C)[N+](=O)[O-])(C3)C2 | cell growth or viability, SRB | 96 h | – | IC50 | 11.4 µM
O=c1[nH]nc(O)c2c(-c3ccc(Br)cc3)c3n(c12)CCn1cccc1-3 | cell growth or viability, MTT | 48 h | – | IC50 | 60 µM
C[C@]1([N+](=O)[O-])C(=O)c2ccccc2O[C@@H]1CC(=O)NNc1nc2ccccc2s1 | cell growth or viability, SRB | 96 h | – | IC50 | > 50 µM
COc1cc(CNC(=O)CCCC/C=C/C(C)C)ccc1OCc1cn(-c2ccc(C)c(C)c2)nn1 | SRB | 10 µM, 48 h | – | growth percent | 78.4%
O=c1[nH]nc(O)c2c(-c3cccc(Br)c3)c3n(c12)CCn1cccc1-3 | cell growth or viability, MTT | 48 h | – | IC50 | 66.3 µM
CN(C(=O)C[C@H]1Oc2ccccc2C(=O)[C@]1(C)[N+](=O)[O-])C1CCCCC1 | cell growth or viability, SRB | 96 h | – | IC50 | > 50 µM
COc1cc(CNC(=O)CCCC/C=C/C(C)C)ccc1OCc1cn(-c2cccc(Cl)c2)nn1 | SRB | 10 µM, 48 h | – | growth percent | 83.6%
C[C@]1(N)C(=O)c2cc(F)ccc2O[C@@H]1CC(=O)NC12CC3CC(CC(C3)C1)C2 | cell growth or viability, SRB | 96 h | – | IC50 | > 50 µM
COc1cc(CNC(=O)CCCC/C=C/C(C)C)ccc1OCc1cn(-c2cccc([N+](=O)[O-])c2)nn1 | SRB | 10 µM, 48 h | – | growth percent | 82.2%
CCNC(=O)C[C@H]1Oc2ccccc2C(=O)[C@]1(C)[N+](=O)[O-] | cell growth or viability, SRB | 96 h | – | IC50 | 9.35 µM
C#C[C@@]1(O)[C@@H](CO)O[C@@H](n2cc(I)c3c(N)ncnc32)[C@@H]1O | cell growth or viability, SRB | 48 h | – | GI50 | 0.076 µM
COc1cc(-c2c3n(c4c(=O)[nH]nc(O)c24)CCn2cccc2-3)ccc1O | cell growth or viability, MTT | 48 h | – | IC50 | 17.8 µM
CCCCCCCC(=O)NCCCC[C@H](N)C(=O)NCCCNCCCCNCCCN | cell growth | 6 days, added: DFMO 5.0 mM, spermidine 0.5 µM, aminoguanidine 1.0 mM | – | EC50 | 1.1 µM

Excerpt of the above:
Compound | test | conditions | scale | endpoint | result
C#C[C@@]1(O)[C@@H](CO)O[C@@H](n2cc(Br)c3c(N)ncnc32)[C@@H]1O | cell growth or viability, SRB | 48 h | – | GI50 | 0.107 µM
COc1cc(CNC(=O)CCCC/C=C/C(C)C)ccc1OCc1cn(-c2ccccc2OC)nn1 | SRB | 10 µM, 48 h | – | growth percent | 73.5%
C[C@]1([N+](=O)[O-])C(=O)c2ccccc2O[C@@H]1CC(=O)NC1CCCC1 | cell growth or viability, SRB | 96 h | – | IC50 | > 50 µM
CCc1ccc(-n2cc(COc3ccc(CNC(=O)CCCC/C=C/C(C)C)cc3OC)nn2)cc1 | SRB | 10 µM, 48 h | – | growth percent | 70.9%
COC(=O)c1c(-c2cccc(C)c2)c2n(c1C(=O)OC)CCn1cccc1-2 | cell growth or viability, MTT | 48 h | – | IC50 | 92.8 µM
